Measurements pooled from the literature.
Compare with care: the assays were run in different laboratories. Several values in a cell are separate wells, animals, samples, runs or records. ± gives the spread as reported. Non-standard residues stand in square brackets, D forms with d. Square brackets hold non-standard residues; d marks the D form. Primed or numbered codes have the meaning given here. Where no end group is shown, it is not given here. Ends that are not written are not given here. No end group written: not given here. * marks the point of attachment. *: point of attachment.
RPA1: RPA1 1-120 (Homo sapiens, UniProt P27694)
Sequence of UniProt P27694 (whole entry, looked up): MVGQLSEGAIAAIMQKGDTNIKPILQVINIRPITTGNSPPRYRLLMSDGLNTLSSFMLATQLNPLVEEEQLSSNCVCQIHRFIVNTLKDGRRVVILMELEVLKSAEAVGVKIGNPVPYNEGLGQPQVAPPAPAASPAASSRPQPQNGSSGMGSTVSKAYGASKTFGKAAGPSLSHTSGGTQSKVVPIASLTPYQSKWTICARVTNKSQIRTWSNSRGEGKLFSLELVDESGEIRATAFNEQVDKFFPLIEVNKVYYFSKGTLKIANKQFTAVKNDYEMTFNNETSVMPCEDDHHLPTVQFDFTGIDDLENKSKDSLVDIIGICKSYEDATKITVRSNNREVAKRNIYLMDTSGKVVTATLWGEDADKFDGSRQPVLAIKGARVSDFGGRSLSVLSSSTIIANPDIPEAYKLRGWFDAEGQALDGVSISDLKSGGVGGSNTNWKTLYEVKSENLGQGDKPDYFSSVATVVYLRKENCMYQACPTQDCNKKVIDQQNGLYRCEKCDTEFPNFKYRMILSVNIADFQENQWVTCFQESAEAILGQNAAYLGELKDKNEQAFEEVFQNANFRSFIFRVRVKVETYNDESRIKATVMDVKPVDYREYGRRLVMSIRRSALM
B1: CDH1 residues 1-221 (Homo sapiens); chain DWVIPPISCPENEKGPFPKNLVQIKSNKDKEGKVFYSITGQGADTPPVGVFIIERETGWLKVTEPLDRERIATYTLFSHAVSSNGNAVEDPMEILITVTDQNDNKPEFTQEVFKGSVMEGALPGTSVMEVTATDADDDVNTYNAAIAYTILSQDPELPDKNMFTINRNTGVISVVTTGLDRESFPTYTLVVQAADLQGEGLSTTATAVITVTDTNDNPPIF
B2: Fras1 CSPG domains (Mus musculus); chain TPSLHVNGSLTLGIGSMKPLDFSLLNIQHQDGRVEDLLFHVVSTPTNGQLLLSRNGKEVQLEKAGHFSWKDVNEKKVRFVHSKEKLRKGYFSLKISDQQFFSEPQLINIQAFSTQAPYVLRNEVLHVSKGERATITTQLLDIRDDDNPQDVVVNVLDPPLHGQLLQMPPAPAASIYQFHLDELSRGLLLYAHDGSDSTSDIIVFQANDGHSFQNILFHVKNIPKNDRALRLVTNSMVWVPEGGMLKITNRILKAQAPGVRADDIIYKITHSRPQFGEVVLLMNLPADSPAGPAEEGHHLPDGRMATPISTFTQQDIDDGVVWYRHLGAPTQSDSFRFQVSSATSAQEHLESHMFNIAILPQAPEAPKLSLGTSLHMTAREDGLSVIQPQSLSFVKAESPSGKIIYNITVPLHPNQGIIEHRDRPHSPIQYFTQEDINQGQIMYRPPVAPPHLQEIMAFSFAGLPESVKFYFTVSDGQHTSPEMALTIHLLHSDLQPPAFQVKAPLLEVSPGGRTSLGLQLLVRDAQVVPEELFFQLQKSPQHGMLVKYTAKSSVTMAAGDTFTYDEVERNVLQYVHDGSSAWEDSLEISVTDGLTVTTSEVKVEVSPSENRGPRLAPGSSLSMTVASQHTAIITRSHLAYVDDSSSDPEIWIRLSSLPLYGVLFRSSGPDMDELSGDSNFTMEDINKKNIRYSAVFETDGHSVTDGFHFSVSDMDGNHVDNQVFTITVTPAENPPHIIAFADLITVDEGGRAPLSLHHFFATEDQDNLQDDAVIKLSALPKYGCIENTGTGDRFGPGANSELEASFPIQDVLENYIYYFQSVHESIEPTHDVFSFYVSDGSGRSEIHSINITIERKNDEPPRMTLRPLGVRLSSGVAISNSSLSLQDLDTPDNELIFVLMKKPDHGHLLRRSTASDPLENGTVLDQGSSFTYQDVLAGLVGYLPGDIYMAVDEFRFSLTDGLHVDTGRMEIYIELPSTNIPHLAINRGLQLSAGSVARITEQHLKATDTDSEAGQVVYIMKEDPGAGRLLMAKADNLEQISVRGPIRSFTQADVSQGQIEYSHGPGEPGGSFAFKFDVVDGEGNKLADQSFSIGVLEDKSPPVVITNRGLVLDENSVEKITTAQLSATDQDSKPTELIYRITTQPQLGHLEHVASPGIQISSFTQADLASRNVQYVRSSGTGKQSDAFSFVLSDGLHEVTQTFPITIHPVDDARPLVQNRGMRVQEGVRKTITEFELKAVDVDTEAESITFTIVQPPRHGTIERTARGQRFHQTSSFTMEDIYQNRVSYSHDGSNSLKDRFTFTVSDGTNPFFIIEEGGEEIMTAAPQQFHVDILPVDDGTPRIVTNLGLQWLEYMDGKATNLITKKELLTVDPDTEDSQLIYEVTTGPMHGYLENKLQPGRAAATFTQEHVNLGLIRYVLYEEKIQKVMDSFQFLVKDSKPNV
B3: ISU1 mature (Saccharomyces cerevisiae, UniProt Q03020); sequence looked up; chain SSITKRLYHPKVIEHYTHPRNVGSLDKKLPNVGTGLVGAPACGDVMRLQIKVNDSTGVIEDVKFKTFGCGSAIASSSYMTELVQGMTLDDAAKIKNTEIAKELSLPPVKLHCSMLAEDAIKAAIKDYKSKRNTPTMLS
B4: asprosin mature (Homo sapiens, UniProt P35555); sequence looked up; chain STNETDASNIEDQSETEANVSLASWDVEKTAIFAFNISHVSNKVRILELLPALTTLTNHNRYLIESGNEDGFFKINQKEGISYLHFTKKKPVAGTYSLQISSTPLYKKKELNQLEDKYDKDYLSGELGDNLKMKIQVLLH
B5: adrenodoxin (Bos taurus, UniProt P00257); RED dye on amines; sequence looked up; chain SSSEDKITVHFINRDGETLTTKGKIGDSLLDVVVQNNLDIDGFGACEGTLACSTCHLIFEQHIFEKLEAITDEENDMLDLAYGLTDRSRLGCQICLTKAMDNMTVRVPDAVSDARESIDMGMNSSKIE
B6: TIM8/TIM13 hetero-hexamer (Saccharomyces cerevisiae); chain 1 MSSLSTSDLASLDDTSKKEIATFLEGENSKQKVQMSIHQFTNICFKKCVESVNDSNLSSQEEQCLSNCVNRFLDTNIRIVNGLQNTR; chain 2 GGLSSIFGGGAPSQQKEAATTAKTTPNPIAKELKNQIAQELAVANATELVNKISENCFEKCLTSPYATRNDACIDQCLAKYMRSWNVISKAYISRIQNASASGEI
B7: FGA/FGB/FGG 20-644 (Homo sapiens); chain 1 ADSGEGDFLAEGGGVRGPRVVERHQSACKDSDWPFCSDEDWNYKCPSGCRMKGLIDEVNQDFTNRINKLKNSLFEYQKNNKDSHSLTTNIMEILRGDFSSANNRDNTYNRVSEDLRSRIEVLKRKVIEKVQHIQLLQKNVRAQLVDMKRLEVDIDIKIRSCRGSCSRALAREVDLKDYEDQQKQLEQVIAKDLLPSRDRQHLPLIKMKPVPDLVPGNFKSQLQKVPPEWKALTDMPQMRMELERPGGNEITRGGSTSYGTGSETESPRNPSSAGSWNSGSSGPGSTGNRNPGSSGTGGTATWKPGSSGPGSTGSWNSGSSGTGSTGNQNPGSPRPGSTGTWNPGSSERGSAGHWTSESSVSGSTGQWHSESGSFRPDSPGSGNARPNNPDWGTFEEVSGNVSPGTRREYHTEKLVTSKGDKELRTGKEKVTSGSTTTTRRSCSKTVTKTVIGPDGHKEVTKEVVTSEDGSDCPEAMDLGTLSGIGTLDGFRHRHPDEAAFFDTASTGKTFPGFFSPMLGEFVSETESRGSESGIFTNTKESSSHHPGIAEFPSRGKSSSYSKQFTSSTSYNRGDSTFESKSYKMADEAGSEADHEGTHSTKRGHAKSRPVRGIHTSPLGKPSLSP; chain 2 QGVNDNEEGFFSARGHRPLDKKREEAPSLRPAPPPISGGGYRARPAKAAATQKKVERKAPDAGGCLHADPDLGVLCPTGCQLQEALLQQERPIRNSVDELNNNVEAVSQTSSSSFQYMYLLKDLWQKRQKQVKDNENVVNEYSSELEKHQLYIDETVNSNIPTNLRVLRSILENLRSKIQKLESDVSAQMEYCRTPCTVSCNIPVVSGKECEEIIRKGGETSEMYLIQPDSSVKPYRVYCDMNTENGGWTVIQNRQDGSVDFGRKWDPYKQGFGNVATNTDGKNYCGLPGEYWLGNDKISQLTRMGPTELLIEMEDWKGDKVKAHYGGFTVQNEANKYQISVNKYRGTAGNALMDGASQLMGENRTMTIHNGMFFSTYDRDNDGWLTSDPRKQCSKEDGGGWWYNRCHAANPNGRYYWGGQYTWDMAKHGTDDGVVWMNWKGSWYSMRKMSMKIRPFFPQQ; chain 3 YVATRDNCCILDERFGSYCPTTCGIADFLSTYQTKVDKDLQSLEDILHQVENKTSEVKQLIKAIQLTYNPDESSKPNMIDAATLKSRKMLEEIMKYEASILTHDSSIRYLQEIYNSNNQKIVNLKEKVAQLEAQCQEPCKDTVQIHDITGKDCQDIANKGAKQSGLYFIKPLKANQQFLVYCEIDGSGNGWTVFQKRLDGSVDFKKNWIQYKEGFGHLSPTGTTEFWLGNEKIHLISTQSAIPYALRVELEDWNGRTSTADYAMFKVGPEADKYRLTYAYFAGGDAGDAFDGFDFGDDPSDKFFTSHNGMQFSTWDNDNDKFEGNCAEQDGSGWWMNKCHAGHLNGVYYQGGTYSKASTPNGYDNGIIWATWKTRWYSMKKTTMKIIPFNRLTIGEGQQHHLGGAKQAGDV
Sequence of UniProt P15873 (whole entry, unmodified, looked up): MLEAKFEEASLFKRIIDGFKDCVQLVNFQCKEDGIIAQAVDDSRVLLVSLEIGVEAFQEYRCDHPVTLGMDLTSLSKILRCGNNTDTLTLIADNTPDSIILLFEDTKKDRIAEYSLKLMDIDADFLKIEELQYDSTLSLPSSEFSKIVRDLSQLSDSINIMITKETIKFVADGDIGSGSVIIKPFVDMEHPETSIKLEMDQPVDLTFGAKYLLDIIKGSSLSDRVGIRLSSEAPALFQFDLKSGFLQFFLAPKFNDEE
Sequence of UniProt P06400 (whole entry, unmodified, looked up): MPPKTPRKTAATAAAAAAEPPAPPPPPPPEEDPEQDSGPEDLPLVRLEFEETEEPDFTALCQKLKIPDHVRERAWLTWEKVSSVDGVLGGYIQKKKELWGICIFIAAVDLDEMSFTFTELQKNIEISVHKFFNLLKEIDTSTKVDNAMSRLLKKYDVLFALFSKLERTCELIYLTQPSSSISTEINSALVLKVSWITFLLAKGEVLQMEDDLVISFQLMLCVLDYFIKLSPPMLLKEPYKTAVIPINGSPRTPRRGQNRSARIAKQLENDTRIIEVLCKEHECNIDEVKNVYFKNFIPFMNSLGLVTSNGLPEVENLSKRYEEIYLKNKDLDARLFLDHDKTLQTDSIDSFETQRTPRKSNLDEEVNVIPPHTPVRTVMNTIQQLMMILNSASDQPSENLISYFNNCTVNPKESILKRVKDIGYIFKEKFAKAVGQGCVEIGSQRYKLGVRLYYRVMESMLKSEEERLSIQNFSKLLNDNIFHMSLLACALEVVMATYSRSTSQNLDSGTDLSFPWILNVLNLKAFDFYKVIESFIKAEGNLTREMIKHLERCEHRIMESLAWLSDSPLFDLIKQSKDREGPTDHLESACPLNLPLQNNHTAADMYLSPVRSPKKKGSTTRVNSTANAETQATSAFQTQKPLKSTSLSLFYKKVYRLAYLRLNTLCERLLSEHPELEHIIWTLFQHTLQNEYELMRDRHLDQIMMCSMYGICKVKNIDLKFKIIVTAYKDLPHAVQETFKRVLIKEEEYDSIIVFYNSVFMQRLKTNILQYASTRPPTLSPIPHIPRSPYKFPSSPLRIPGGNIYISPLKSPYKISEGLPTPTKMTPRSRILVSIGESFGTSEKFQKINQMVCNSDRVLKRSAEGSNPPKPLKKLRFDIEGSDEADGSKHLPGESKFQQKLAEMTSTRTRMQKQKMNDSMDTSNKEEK
Sequence of UniProt Q02318 (whole entry, looked up): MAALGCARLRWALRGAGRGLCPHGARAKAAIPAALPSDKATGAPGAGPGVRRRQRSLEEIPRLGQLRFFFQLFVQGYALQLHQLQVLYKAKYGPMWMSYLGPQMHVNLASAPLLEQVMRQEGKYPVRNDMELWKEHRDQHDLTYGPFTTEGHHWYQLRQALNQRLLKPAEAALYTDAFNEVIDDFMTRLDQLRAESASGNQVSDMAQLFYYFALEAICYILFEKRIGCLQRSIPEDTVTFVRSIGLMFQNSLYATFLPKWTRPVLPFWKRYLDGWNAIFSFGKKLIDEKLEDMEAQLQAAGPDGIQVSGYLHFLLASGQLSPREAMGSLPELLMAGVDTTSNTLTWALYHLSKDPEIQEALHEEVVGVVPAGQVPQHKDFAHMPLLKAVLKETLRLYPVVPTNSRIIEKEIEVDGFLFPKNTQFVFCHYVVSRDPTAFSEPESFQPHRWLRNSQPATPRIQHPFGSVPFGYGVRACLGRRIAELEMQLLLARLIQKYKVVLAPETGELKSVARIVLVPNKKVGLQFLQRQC
Sequence of UniProt P53193 (whole entry, unmodified, looked up): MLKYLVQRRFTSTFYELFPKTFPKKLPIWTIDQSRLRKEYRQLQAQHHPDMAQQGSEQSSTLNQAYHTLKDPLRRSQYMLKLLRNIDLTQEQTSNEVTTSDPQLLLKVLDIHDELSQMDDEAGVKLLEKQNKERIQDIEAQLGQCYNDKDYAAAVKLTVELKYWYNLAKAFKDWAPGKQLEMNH
Sequence of UniProt P54760 (whole entry, looked up): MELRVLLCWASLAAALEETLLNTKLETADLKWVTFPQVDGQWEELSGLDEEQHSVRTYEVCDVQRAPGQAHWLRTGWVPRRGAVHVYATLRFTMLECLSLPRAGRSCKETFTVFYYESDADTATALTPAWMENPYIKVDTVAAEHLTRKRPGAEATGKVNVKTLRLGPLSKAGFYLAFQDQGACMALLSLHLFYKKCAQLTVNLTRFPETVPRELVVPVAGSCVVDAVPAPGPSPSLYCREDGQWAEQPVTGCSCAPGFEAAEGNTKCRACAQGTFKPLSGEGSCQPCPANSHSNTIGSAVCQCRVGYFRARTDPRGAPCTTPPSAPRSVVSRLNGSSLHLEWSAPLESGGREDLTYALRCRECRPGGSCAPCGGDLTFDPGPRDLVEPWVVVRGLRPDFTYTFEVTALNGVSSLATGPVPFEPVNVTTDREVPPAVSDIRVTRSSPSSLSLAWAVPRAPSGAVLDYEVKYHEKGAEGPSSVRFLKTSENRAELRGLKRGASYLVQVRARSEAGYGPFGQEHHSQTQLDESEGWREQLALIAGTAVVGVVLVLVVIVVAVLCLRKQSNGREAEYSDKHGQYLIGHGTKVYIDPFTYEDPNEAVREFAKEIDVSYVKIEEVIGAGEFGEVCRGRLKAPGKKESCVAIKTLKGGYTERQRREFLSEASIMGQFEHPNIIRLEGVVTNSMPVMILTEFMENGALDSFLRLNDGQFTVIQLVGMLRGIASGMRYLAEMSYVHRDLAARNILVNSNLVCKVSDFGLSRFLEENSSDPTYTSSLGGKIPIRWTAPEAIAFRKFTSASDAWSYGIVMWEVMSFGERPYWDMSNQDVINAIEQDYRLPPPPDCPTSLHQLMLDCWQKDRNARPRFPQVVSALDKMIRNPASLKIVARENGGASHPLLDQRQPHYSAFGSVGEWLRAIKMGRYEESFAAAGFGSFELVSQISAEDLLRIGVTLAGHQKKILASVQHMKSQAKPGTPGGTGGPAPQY
Sequence of UniProt P29317 (whole entry, looked up): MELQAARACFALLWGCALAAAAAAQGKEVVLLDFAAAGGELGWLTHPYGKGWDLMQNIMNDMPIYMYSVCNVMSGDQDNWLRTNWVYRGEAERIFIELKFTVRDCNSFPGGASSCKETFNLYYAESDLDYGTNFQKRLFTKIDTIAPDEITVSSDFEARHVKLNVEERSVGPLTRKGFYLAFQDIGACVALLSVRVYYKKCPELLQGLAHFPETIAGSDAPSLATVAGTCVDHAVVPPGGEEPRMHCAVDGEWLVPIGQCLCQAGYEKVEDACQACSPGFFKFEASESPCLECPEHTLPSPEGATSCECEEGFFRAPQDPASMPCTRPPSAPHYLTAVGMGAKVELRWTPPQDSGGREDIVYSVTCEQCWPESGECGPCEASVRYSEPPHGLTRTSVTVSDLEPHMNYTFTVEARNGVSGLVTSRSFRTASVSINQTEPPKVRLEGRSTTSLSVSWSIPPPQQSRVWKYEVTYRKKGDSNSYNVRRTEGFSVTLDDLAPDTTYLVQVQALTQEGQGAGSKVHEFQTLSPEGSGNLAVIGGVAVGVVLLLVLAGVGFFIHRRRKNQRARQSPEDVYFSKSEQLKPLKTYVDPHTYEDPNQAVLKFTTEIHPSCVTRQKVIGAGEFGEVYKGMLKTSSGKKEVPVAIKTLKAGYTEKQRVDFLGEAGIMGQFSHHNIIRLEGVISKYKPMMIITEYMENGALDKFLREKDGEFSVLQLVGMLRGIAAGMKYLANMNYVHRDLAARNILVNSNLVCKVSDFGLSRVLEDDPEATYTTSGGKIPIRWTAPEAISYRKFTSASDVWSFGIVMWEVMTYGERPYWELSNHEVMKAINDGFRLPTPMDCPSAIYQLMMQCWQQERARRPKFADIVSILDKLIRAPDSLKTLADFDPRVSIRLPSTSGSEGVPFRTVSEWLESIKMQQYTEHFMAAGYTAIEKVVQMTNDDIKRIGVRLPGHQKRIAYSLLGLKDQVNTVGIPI
Sequence of UniProt Q96E93 (whole entry, looked up): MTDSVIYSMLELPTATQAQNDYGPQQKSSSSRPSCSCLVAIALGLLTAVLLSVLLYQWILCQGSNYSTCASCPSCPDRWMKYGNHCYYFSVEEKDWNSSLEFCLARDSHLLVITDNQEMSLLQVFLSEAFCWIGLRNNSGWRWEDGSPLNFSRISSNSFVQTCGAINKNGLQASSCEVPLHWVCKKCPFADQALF
Sequence of UniProt P32897 (whole entry, looked up): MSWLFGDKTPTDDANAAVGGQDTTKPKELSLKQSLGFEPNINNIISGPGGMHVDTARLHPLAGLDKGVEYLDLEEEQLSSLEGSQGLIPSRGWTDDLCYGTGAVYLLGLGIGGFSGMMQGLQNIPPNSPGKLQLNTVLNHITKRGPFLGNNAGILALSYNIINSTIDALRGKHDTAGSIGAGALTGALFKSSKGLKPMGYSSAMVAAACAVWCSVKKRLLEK

`GVVEVDAAV[pT]PEERHLSKMQQNGY (APP 659-682 (UniProt P05067-4); pT668; pT = C[C@@H](OP(=O)(O)O)[C@H](N)C(=O)O; sequence looked up)` has a Kd of 27000 nM (PIN1 WW domain 1-53 (Homo sapiens, UniProt Q13526); ITC; peptide; pH 6.9, 25 °C, trans isomer).
`B1 (CDH1 residues 1-221)` gave a Kd of 100000 nM (KLRG1 C-type lectin domain 75-186 (Homo sapiens, UniProt Q96E93); SPR; equilibrium fit, Scatchard analysis).
`GSGASMPNENSVKEPEIRCDEKPEDLLEEPKTTSEETLEDCSEVTPAM (PRDM2 residues 297-341 (Homo sapiens, UniProt Q13029))` has a Kd of 110 nM (RB1 372-581 linked 636-787 (Homo sapiens, UniProt P06400); fluorescence polarisation; competition).
`PNKP fragment (Homo sapiens)` has a Kd of 2230 nM (XRCC1 residues 515-526, pS518/pT519 (Homo sapiens); ITC).
For `SAYPDSVPMMS (designed peptide)`, the Kd was 9000 nM (EPHA2 27-200 (Homo sapiens, UniProt P29317); ITC; peptide).
With `NDP fragment (Homo sapiens)` the Kd was 450 nM (LRP6 β-propeller domains 1-2 (Homo sapiens); AlphaScreen or HTRF).
`ATRIP` has a Kd of 7400 nM (RPA1; fluorescence polarisation; pH 7.5, NaCl 75 mM).
The Kd of `{FITC-Ahx}-DFTADDLEELDTLAS-NH2 (ATRIP residues 54-68; SMILES CC(C)C[C@H](NC(=O)[C@H](CC(=O)O)NC(=O)[C@H](CC(=O)O)NC(=O)[C@H](C)NC(=O)[C@@H](NC(=O)[C@H](Cc1ccccc1)NC(=O)[C@H](CC(=O)O)NC(=O)CCCCCNC(=S)Nc1ccc2c(c1)C(=O)OC21c2ccc(O)cc2Oc2cc(O)ccc21)[C@@H](C)O)C(=O)N[C@@H](CCC(=O)O)C(=O)N[C@@H](CCC(=O)O)C(=O)N[C@@H](CC(C)C)C(=O)N[C@@H](CC(=O)O)C(=O)N[C@H](C(=O)N[C@@H](CC(C)C)C(=O)N[C@@H](C)C(=O)N[C@@H](CO)C(N)=O)[C@@H](C)O; N-terminal FITC-Ahx, C-terminal amide; FITC = O=C1OC2(c3ccc(O)cc3Oc3cc(O)ccc32)c2ccc(NC(=S)*)cc21; Ahx = NCCCCCC(=O)O)` is reported as 15200 nM (RPA1; NMR titration; peptide).
For `B2 (Fras1 CSPG domains)`, the Kd was 75 nM (Vwa2 (Mus musculus, UniProt Q70UZ7); SPR; pH 7.4, 25 °C, NaCl 0.15 M, Langmuir fit).
The Kd of `{FITC}-GFID[pS]D[pT]DVEEE-NH2 (peptide; N-terminal FITC, pS5, pT7, C-terminal amide; FITC = O=C1OC2(c3ccc(O)cc3Oc3cc(O)ccc32)c2ccc(NC(=S)*)cc21; pS = N[C@@H](COP(=O)(O)O)C(=O)O; pT = C[C@@H](OP(=O)(O)O)[C@H](N)C(=O)O)` is reported as 15000 ± 1000 nM (TOPBP1 641-746 M689A (Homo sapiens, UniProt Q92547); fluorescence polarisation; peptide; pH 7.5, NaCl 150 mM).
For `MPIFLDHILNKFWILHYASG (SPAM peptide; C-terminal propargylglycine, ROX label)`, the Kd was 119 ± 33 nM (CD274 ectodomain (Homo sapiens); fluorescence polarisation; peptide; 100 nM).
`{Cy5.5″}-TNYLFSPNGPIARAWK(DOTA)-NH2 (peptide; N-terminal Cy5.5, C-terminal DOTA; Cy5.5″ = near-infrared fluorescent dye Cy5.5; DOTA = O=C(O)CN1CCN(CC(=O)O)CCN(CC(=O)*)CCN(CC(=O)O)CC1)` gave a Kd of 1.01 nM (EPHB4 16-539 (Homo sapiens, UniProt P54760); SPR; peptide).
`B3 (ISU1 mature)` has a Kd of 4730 ± 1790 nM (JAC1 D110A/D113A/D114A/Q117A (Saccharomyces cerevisiae, UniProt P53193); pull-down; apparent).
With `{TMR}-QDDYLWGLEAGEGISDLFD (E2F2 409-428 (Homo sapiens); N-terminal TMR label; TMR = tetramethylrhodamine dye)` the Kd was 31 nM (RB1 55-787 del245-267/del582-642, phosphorylated by Cdk2-CycA (UniProt P06400); fluorescence polarisation; peptide; pH 8.0, NaCl 100 mM, two-site fit, added: E7 LxCxE peptide 10 µM).
`B4 (asprosin mature)` has a Kd of 4.2 nM (PTPRD extracellular domain 21-1265, RED-tris-NTA dye label (UniProt P23468); MST).
`B5 (adrenodoxin)` gave a Kd of 200 nM (CYP27A1 (Homo sapiens, UniProt Q02318); MST; pH 7.4, 25 °C, oxidized, single-site model).
For `B6 (TIM8/TIM13 hetero-hexamer)`, the Kd was 66000 ± 8000 nM (TIM23 1-98 (Saccharomyces cerevisiae, UniProt P32897); ITC; 20 °C).
`RFC1/RFC2/RFC3/RFC4/RFC5 Rfc1 284-end (Saccharomyces cerevisiae)` has a Kd of 7.9 nM and 5.5 nM (POL30 1-258 C22S/C62S/C81S/S43C, MDCC on Cys43 (Saccharomyces cerevisiae, UniProt P15873); fluorescence titration; added: ATP 0.5 mM).
`ETDKE[pY][pY]TVKD (JAK1 1029-1039; pY1034/pY1035; pY = N[C@@H](Cc1ccc(OP(=O)(O)O)cc1)C(=O)O)` gave a Kd of 700 ± 100 nM (PTPN6 243-530 C453S (Homo sapiens, UniProt P29350); ITC; peptide; pH 8.0, 25 °C, NaCl 100 mM).
The Kd of `B7 (FGA/FGB/FGG 20-644)` is reported as 100 nM (ITGA2B/ITGB3 heterodimer (Homo sapiens); radioligand binding; platelets; apparent, without Ca2+ and Mg2+, added: ADP, Zn2+ 50 µM).

A few entries again:
`B4 (asprosin mature)` has a Kd of 4.2 nM (PTPRD extracellular domain 21-1265, RED-tris-NTA dye label (UniProt P23468); MST).
`B5 (adrenodoxin)` gave a Kd of 200 nM (CYP27A1 (Homo sapiens, UniProt Q02318); MST; pH 7.4, 25 °C, oxidized, single-site model).
